Results gathered from unrelated publications.
Each numbered part is a random draw from the data of one study; scales do not carry over between parts.

Sample 1
Target: Histone acetyltransferase KAT6A, winged helix 2, GST fusion (KAT6A, Homo sapiens, UniProt Q92794, residues 85-181)
Method: protein binding microarray
Form: double-stranded DNA, one strand shown
Medium: in vitro
Concentration: not given
Setting: 8-mer, flanks averaged, mean of 2 arrays, mostly near background
Reference: not given
Direction: higher = stronger binding
Residues (chain): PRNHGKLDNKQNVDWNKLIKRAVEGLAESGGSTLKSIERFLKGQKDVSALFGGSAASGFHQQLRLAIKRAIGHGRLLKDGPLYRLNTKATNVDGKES
| Sequence | E-score |
| --- | --- |
| GGCAATCA | -0.0324 |
| TCAAATAA | 0.0176 |
| AAAACATC | -0.0827 |
| AACAGGCT | -0.0976 |
| GCACATAA | -0.0342 |
| AGTGAGTA | 0.0972 |
| CAACGTAA | -0.224 |
| TGGGGGAA | -0.127 |
| ATGATCCC | -0.104 |
| CCATGAAA | 0.0862 |
| CCACGTGC | 0.0707 |
| AAAGAACT | 0.124 |
| ATGAAGTG | -0.164 |
| GTTCGGTA | 0.0162 |
| GGCCCTGA | -0.035 |
| CAATGCTG | -0.00308 |
| ATTGGTCC | -0.138 |
| CGCTCAAA | 0.0294 |
| GCGGAGGA | -0.0449 |
| AATCTTCA | 0.0505 |
| CAAAGCAG | 0.272 |
| AGCGCCTG | 0.0213 |
| CGATGCAG | -0.0286 |
| GCTCCGAA | 0.26 |

Sample 2
Target: RNA binding protein fox-1 homolog 2, RRM domain, GST-SBP tag (RBFOX2, Homo sapiens, UniProt O43251-10, residues 100-194)
Method: RNA Bind-n-Seq
Form: RNA
Medium: in vitro
Concentration: 365 nM
Setting: natural RNA segment, single round, ends assumed
Reference: no-protein control
Direction: higher = stronger binding
Constant ends, left off below: GGGAGUUCUACAGUCCGACGAUC … UGGAAUUCUCGGGUGCCAA
Target sequence (chain): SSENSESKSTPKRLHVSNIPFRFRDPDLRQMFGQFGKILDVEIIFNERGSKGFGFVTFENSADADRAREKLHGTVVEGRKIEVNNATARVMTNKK
| Sequence | RBNS enrichment (R) |
| --- | --- |
| UCAUUUACUCUCCCAUUAGUAGAACUUGCACUUUGGGCUGUCUGUUCUAGUAUUUGGGAAGUGUUUAUGCUUCCUUCCAGGGACCAUCUUAUGAUCAGAGGCAGGAUGUC | 0.39 |
| GCUGAGGGAGCCUGGCCCCAUGGUCAGCCCUAGGGUGGAGAGCCACCAAGAGGGACGCCUGGGGGUGCCAGGACCAGUCAACCUGGGCAAAGCCUAGUGAAGGCUUCUCU | 0.269 |
| GUGCCCUCGCUUCAUGAGGUGGCACAUCUUCGGUGGCCGUUGGCCUGGUCGAGCUUUGGUCAGCUGCGUGGGUGCCUGUCUCCUGUCUCCAGCGGCAGGGCAUGGUUCUU | 0.454 |
| AAUUACUUUUUUUUACUGUUGCUGGAAGUGUCCCACCUGCUGCUCAUAAUAAAUGCAGAUGUAUAGCGUCCUGUCUGGGGCCCAUUCUGCAGGGGUGGUGGGUGCUGGGA | 0.348 |
| GCACUGGCAGUUGGUGGCAGUGAGACCAGCCCACCCACCACCACCCACCACAGAAAAGCACAAACCUCUGGGAAAGACAACGUCUCUCGGGGGCCAGGGGUCAUCGGUUU | 0.54 |
| UGGGAGGAAUCCCUGAAGACCUGCAUCCCCUAAGUGAGGACCCUACAGGGUACCUUGUGCUCUGCCCCCAGACCCAUAGCCUUAGCAGUGGGCCAACUACAAUCCUCAUC | 0.504 |
| GUCUGCUCCUAGCCUGUGCUCUGCCAGCAGCACAGACAUCUGCUCCAUCAGACCUCUUCCAUUUUGCACAGGGAGUGCAGGAGGUGAAUGUUCACUUUCUGUUCUCCAGU | 1.07 |
| AAGUGGCCGCUAGAGAAGAAUACAAUUUAGCAGCAACUGCCGGCUCUUUGGGCAGAGGUUUGAUUUUUGGCAUUUGUACAAGCCGCACGGGCAAAGGGGGAAAAGAAUGC | 2.31 |
| GUUUUAAAAAACCGAGUUGGUUUUAUUGAAUUUAAAAAGAUAGGUAACUAAGUAGCAUUUAAAAUCAAGAUAGAGCAUUCCUUCUUGUAUCAGUGGGGCAGUGUUACCAU | 0.4 |
| GCUGGGGGCUUUCGGGGGCAGUUGCCCACCUCCUCAGGGCAGCUCUUUCUGGCCUUUUGGGGGGCAGUGUCUGUGCCAUGCCUAAUAGAUAUGACCAGACGCAUCCUAAG | 0.355 |
| CAAGUAUUUUAAAUAAAUAAUCUUAAAUUUUAAAAUACGUACUGCAGAGUAUGCCAGUAUCUUAUUGUUAAAACUGAAUCAAAUAAAUCUUCGAUUCCUGGUUAUUUGGA | 0.608 |
| CUGUCUUCCAGGACACAUUUUUAGAUACUCUGACAGGCCACUGCAUCUCAGAUUCAGGGGAGAAAAUAAGUUGUCACCUCCCCUUCAAAGUUCCAGAGUAAACAAAUGGU | 1.22 |

Sample 3
Target: RING finger protein unkempt homolog, zinc fingers 1-6, GST-SBP tag (UNK, Homo sapiens, UniProt Q9C0B0, residues 30-357)
Sequence of UniProt Q9C0B0 (30-357, looked up): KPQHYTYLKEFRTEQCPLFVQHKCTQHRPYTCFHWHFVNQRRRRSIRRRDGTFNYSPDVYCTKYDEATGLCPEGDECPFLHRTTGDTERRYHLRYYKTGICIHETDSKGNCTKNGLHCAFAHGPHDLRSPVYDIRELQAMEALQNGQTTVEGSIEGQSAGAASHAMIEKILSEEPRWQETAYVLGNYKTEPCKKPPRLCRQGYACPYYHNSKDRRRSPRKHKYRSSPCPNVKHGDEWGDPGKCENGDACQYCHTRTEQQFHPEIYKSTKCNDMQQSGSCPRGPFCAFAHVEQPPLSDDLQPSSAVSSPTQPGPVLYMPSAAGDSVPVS
Method: RNA Bind-n-Seq
Form: RNA
Medium: in vitro
Concentration: not given
Setting: RNA with constant flanks, human and mouse sites, ends assumed
Reference: input RNA pool
Direction: higher = stronger binding
Constant ends, left off below: GGGAGUUCUACAGUCCGACGAUC … CAACAGAGGAUUGAGCAUCA
| Sequence | bound/input enrichment [ratio] |
| --- | --- |
| AACAGGAUCAGUUAAUUAUUCCAUUUAUACCUACUGUAGGCUUUUUAUUCAACAGUUAUCUGUAGCUUAAGUACAUGAUAGGCAAAAACAAAGAGAAAAGAAAUGUUUUUGUAGUAGUGG | 2.45 |
| UCCACUCUAGGAUCUUUCCAAGGUGCUGCAUCGUCAGCAUCCCAUUUGCAUACGAGUGCCUCCCAACCAUACUCCUCUUUUGUGAAUCACUACAAUAGUCCAGCCAUGUACUCUGCCAGC | 0.483 |
| AUCAGAGACCAUGUAGUUCAACUUUCCACUCAAAGUAAGAUUUAUGAAUUAUUUAAAUGAUAGUUGUUACUUGGAACAGCCACUUGAGAGGCUCUCUUGGUAUUGUUUGGAAUUGUUUUA | 1.15 |
| GGCAUCUGGGCAGCGGACGAUGGAAGAACUCUGGGCUUCGGCUGGGACCUUUCGUUCAUGUAGCAGGAACCGGAGAUGGUUGCGUAGAGCAGCCCACGGUUUUGUGGAAAUCUGAAAACU | 0.175 |
| AAGGAGGCAGAGGGUCAGAGCUUGGUGGUUUAUCUUUUCCUUGUUUCUCCUUGUUUCUGUUUUAGAAAUGAAGUGUGGGGGUUUAAAUGGCACUUAAACUGCACCCUGGAGCCGGCAGAA | 0.455 |
| UGGUUCCUGGAAGCUGAAGGCAAUGAAUGGCUACUUCAAGAACAGACCCCAUCUGGAGACAUAGAGAAUAUUUCCAAUCAGCCGGCGAUUUCCCUGCAGAUUCCUACCCAUUGCUUGUCA | 0.229 |
| AAAGGAAGUUUGAACAAAGCAAUAGAAGAUUUUGAGCUUGCAUUAGAAAACUGUCCAACUCACAGAAAUGCAAGAAAAUACCUCUGCCAGACACUUGUAGAGAGAGGAGGACAGUUAGAA | 3.67 |
| AGCUUUUGAUUCUCAUGCACCUCUUACAGUUGUUUCUUCUUCUGGACAGAUAAGGGUACAUUUUUGUGCUGAUAAAGUGAAUGCUGCAAGGGGAUUUAAUGCUACUUACCAAGUAGAUGG | 0.198 |
| GGUUGUUUCAAUCUAACAGUCAAAGGUCAUGCUAAAUGUGUAGAAGUUGUAAAAACUUUUAACUUACCAUUACUGAUGCUUGGAGGAGGUGGCUACACAAUCCGUAAUGUUGCUCGAUGU | 0.249 |
| GAUGGUGCACAUGCCCCAGAGUUGACCAAAAAAGUCCAGCGACACGUGUCUAGCGGAGCCUUUCCUCCUAGUACUAAUGAACAUCUUAAAGAAGACCUCAGCCUUCGCCUGAAAAAGCUG | 0.431 |
| GGUGGCGGCCAGUGGCUGAACUCCAGUUGCGCUUGGUCAGAAUCUUCUCAAUUGAAUAAGACUAGAAGUAUCAGACGGCGAGAUUCCUGUCUAAAUUCCAAGACAAAGGUUAUGCCUACU | 0.152 |

Sample 4
Target: Ras GTPase-activating protein-binding protein 1, RRM domain (G3BP1, Homo sapiens, UniProt Q13283)
Sequence of UniProt Q13283 (whole entry, looked up): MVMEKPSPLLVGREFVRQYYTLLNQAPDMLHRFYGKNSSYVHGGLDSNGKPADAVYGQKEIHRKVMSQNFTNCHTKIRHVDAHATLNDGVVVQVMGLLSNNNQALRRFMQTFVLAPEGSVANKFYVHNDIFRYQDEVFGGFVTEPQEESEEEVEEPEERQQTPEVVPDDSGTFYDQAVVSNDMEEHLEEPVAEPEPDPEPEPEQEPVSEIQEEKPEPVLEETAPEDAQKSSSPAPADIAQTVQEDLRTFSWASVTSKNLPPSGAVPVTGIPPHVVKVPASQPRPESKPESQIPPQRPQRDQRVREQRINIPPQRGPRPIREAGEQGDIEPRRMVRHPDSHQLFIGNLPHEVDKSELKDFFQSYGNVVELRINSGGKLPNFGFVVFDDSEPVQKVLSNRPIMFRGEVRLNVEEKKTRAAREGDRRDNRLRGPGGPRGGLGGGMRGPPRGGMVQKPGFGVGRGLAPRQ
Method: RNA Bind-n-Seq
Form: RNA
Medium: in vitro
Concentration: 1 µM
Setting: whole 134-nt RNA, ends assumed
Together with: 150 mM KCl
Reference: input library
Direction: higher = stronger binding
Constant ends, left off below: GGGAGUUCUACAGUCCGACGAUC … UGGAAUUCUCGGGUGUCAAGG
| Sequence | log2 enrichment |
| --- | --- |
| CCUCAAGUCCUGUGCUACACAUCGUAUGUACCGAAUCGGGGUGGGGUGGUGGGAAAGUAUUAUGUUACGCCGUUCGGAUCUGCACUUCCA | 0.115 |
| ACUUUGUCAGAUAUUGCUAGGGACCAGUGAGAUAGAUAAUCCAAAAAUAAUAAUUUGACUUUGGUUGAGUAUGUCAUUACCACAGUGUUA | -0.138 |
| CUGUGCUACACAUCGUAUGUACCGAAUCGGGGUUUUUGGGGUUUUUUUGGGGAAAAAGGGGAAAGUAUUAUGUUACGCCGUUCGGAUCUG | 0.868 |
| ACCCUGCAGGUGGGCAUCUUUGGGAAGUGGGGCAAGGGGGGGAUAGGGAGGGGGGUAACACUUUGGGAACAGGUGGUCCCAGGUCGUUUC | -0.48 |
| CACAGACAACACGCACCCACACAGACACAGAGGGAAGGGGUUGGGAUGGGGACAGGGUGCACAGCAGGGCGGGUUAGGACCCCAGCCCCU | -0.359 |
| CCUGUGCUACACAUCGUAUGUACCGAAUCGGGGAAAAAAAGGAAAAAAAGGGAAAAAAAGGAAAGUAUUAUGUUACGCCGUUCGGAUCUG | 0.0611 |
| CACAGACAACACGCACCCACACAGACACAGAGGGAAGGGGUUGGGAUGGGGACAGGGUGCACAGCAGGGCAGGGUAGGACCCCAGCCCCU | -0.429 |
| CUGUGCUACACAUCGUAUGUACCGAAUCGGGGUUUUUUGGGGUUUUUUGGGUUUUUUGGGGAAAGUAUUAUGUUACGCCGUUCGGAUCUG | -0.183 |
| CCUGUGCUACACAUCGUAUGUACCGAAUCGGCCCCCCGGGGCCCCCCGGGGCCCCCCGGGGAAAGUAUUAUGUUACGCCGUUCGGAUCUG | -0.657 |
| UCCUGUGCUACACAUCGUAUGUACCGAAUCGGGAAAAAAAGGGUUUGGGUUUUUUUGGGAAAGUAUUAUGUUACGCCGUUCGGAUCUGCA | -0.0809 |
| GCAGGAAGUAAAAACAAAUGGAAAUGCUUCGGAUAGUGGCAGGGGUGGGGGUUGCUAAGGAAAAAAUGGGAUGGGAGUGGGUAAAGAGUU | 1.56 |
| UACUCAGCACAGAAAUUCAGGAGACACAGACAAGUUCUUCCACGAUGUCGUACAGACGAGAACUAGAGAAAUACCGUGACCUGGAUGAAG | 0.0987 |
| UGAGUAGAUCUAGAAAUGACAGUAUGACUUUGUUUCUAACAGCUCCAAAAUGGAUCAAAAUGUUUGUUUUGGAUGAAGCAGAUGAAAUGU | -0.454 |
| UGGGAGGUGGAUUUUGUUUAUUUUUUUAGCUCUUUUCCAGGGGUGGGAAUUUUUUUUUAAUAUGUGUCAUGAAUAAAGUUGUUUUUGAAA | 1.43 |

Excerpt of the above (sample 2):
| Sequence | RBNS enrichment (R) |
| --- | --- |
| AAUUACUUUUUUUUACUGUUGCUGGAAGUGUCCCACCUGCUGCUCAUAAUAAAUGCAGAUGUAUAGCGUCCUGUCUGGGGCCCAUUCUGCAGGGGUGGUGGGUGCUGGGA | 0.348 |
| GCACUGGCAGUUGGUGGCAGUGAGACCAGCCCACCCACCACCACCCACCACAGAAAAGCACAAACCUCUGGGAAAGACAACGUCUCUCGGGGGCCAGGGGUCAUCGGUUU | 0.54 |
| UGGGAGGAAUCCCUGAAGACCUGCAUCCCCUAAGUGAGGACCCUACAGGGUACCUUGUGCUCUGCCCCCAGACCCAUAGCCUUAGCAGUGGGCCAACUACAAUCCUCAUC | 0.504 |
| GUCUGCUCCUAGCCUGUGCUCUGCCAGCAGCACAGACAUCUGCUCCAUCAGACCUCUUCCAUUUUGCACAGGGAGUGCAGGAGGUGAAUGUUCACUUUCUGUUCUCCAGU | 1.07 |
| AAGUGGCCGCUAGAGAAGAAUACAAUUUAGCAGCAACUGCCGGCUCUUUGGGCAGAGGUUUGAUUUUUGGCAUUUGUACAAGCCGCACGGGCAAAGGGGGAAAAGAAUGC | 2.31 |
| GUUUUAAAAAACCGAGUUGGUUUUAUUGAAUUUAAAAAGAUAGGUAACUAAGUAGCAUUUAAAAUCAAGAUAGAGCAUUCCUUCUUGUAUCAGUGGGGCAGUGUUACCAU | 0.4 |
| GCUGGGGGCUUUCGGGGGCAGUUGCCCACCUCCUCAGGGCAGCUCUUUCUGGCCUUUUGGGGGGCAGUGUCUGUGCCAUGCCUAAUAGAUAUGACCAGACGCAUCCUAAG | 0.355 |
| CAAGUAUUUUAAAUAAAUAAUCUUAAAUUUUAAAAUACGUACUGCAGAGUAUGCCAGUAUCUUAUUGUUAAAACUGAAUCAAAUAAAUCUUCGAUUCCUGGUUAUUUGGA | 0.608 |
